Measurements collected from several papers.
Lines come from different studies, so protocols differ. Values joined by “and” are separate records of one study, mostly repeats; a detail may differ. ± marks the error that the study gave. Converted amounts (≈) assume the structure as drawn.

For `Nc1ncc(-c2cc(-c3cnn(CC(F)(F)F)c3)ncc2F)nc1C(=O)NC1CNCC(F)C1` (stereo not drawn), the remaining binding was 100% (CLK2; KINOMEscan; 1 µM; baseline: DMSO control).
Under “Pearson's correlation coefficient”, `CCCCN1C(=O)c2cccc3c(NCCCCN4CCOCC4)ccc(c23)C1=O` is recorded as 0.86 ± 0.02 (BHK-21; confocal microscopy, measured: lysosome colocalisation; 0.2 µM, together with: 0.3 µM LysoTracker Deep Red).
For `O=C(Nc1ccon1)C12CC3CC(C1)CC(n1cnc([N+](=O)[O-])n1)(C3)C2`, the translation activity was 85.4% (Trypanosoma cruzi; reporter mRNA translation, inhibitor, measured: Renilla luciferase mRNA; cell-free extract; concentration not given, test 1; baseline: positive over negative control).
For `Cn1ncc2cc(-c3cncc(Cl)c3N3CCC4(CCNC4=O)CC3)ccc21`, “log2 fold change” read 1.38 (LS174T; gene expression, microarray, measured: POU2AF1 mRNA; concentration not given, 4 h; baseline: untreated cells).
The IC50 of `CC(C)c1ccc(N(C)c2ccc3c(c2)OCC[C@H]3CNc2cnccc2C(=O)O)cc1` is reported as 23.9 nM (HCC78; cell growth or viability, ATP luminescence; 7 days).
For `COc1ccc2c(c1)C(n1nnc3ccccc31)C1=C(CCCC1=O)O2` (stereo not drawn), the IC20 was 24.7 µg/mL (≈ 71.1 µM) (3T3-L1; cell growth or viability, MTT; 72 h).
For `CN1CCCNC(=O)c2cccc(c2)C(=O)NCCCN(C)CCCNc2cccc3c2C(=O)c2cccc(c2C3=O)NCCC1`, “log2 fold change” read 3.68 (SAS; RNA-Seq, measured: PAQR6 mRNA; 1 µM, 6 h; baseline: untreated cells).
`Cc1c(Cl)cccc1Nc1ccccc1C(=O)[Se]CC(=O)Nc1cccc(C(F)(F)F)c1` gave a GI50 of 1730 nM (NCI60 CNS cancer panel; five-dose screen).
With `COc1cc(C(=O)N2CC[C@@H](O)[C@@H](N)C2)cc2nc(-c3cc4cccnc4n3CC3CC3)n(C)c12` the inhibition was 28.2% and 24.5% and 50.9% and 54% (human neutrophils; protein citrullination, inhibitor, flow cytometry, measured: citrullinated proteins; 10 µM, together with: ionomycin).
`O=C(N1CCCC1)n1cc(-c2ccc(-c3ccccc3)cc2)nn1` gave an SILAC ratio of 1.09 (mouse T cells; N-terminal labelling proteomics, measured: OXSR1 N-terminal peptides; 0.001 µM, 6 h; baseline: DMSO).
For `COc1ccc(N(CC2CC2)S(=O)(=O)C2CC3OC2C(c2ccc(O)cc2)=C3c2ccc(O)cc2)cc1` (stereo not drawn), the Emax was -7% (MCF7 3xERE-luc, steroid-deprived; ERE luciferase reporter, agonist; baseline: vehicle).
`CCN(CC)CC(=O)Nc1cccc(-n2cc(-c3ccc4ccc(-c5cn(-c6cccc(NC(=O)CN(CC)CC)c6)nn5)cc4c3)nn2)c1` gave a fold regulation of 1.06 (RCC4; PCR array, measured: HGF; 5 x IC50, 6 h, normoxia; baseline: untreated).
The neuron degeneration of `C=CC(=O)N1[C@@H](c2ccc3c(c2)OCO3)c2[nH]c3ccccc3c2C[C@H]1C(=O)NC1CC1` is reported as 86.5% and 90% (rat DRG neurons; 0.04115 µM, 48 h, together with: vincristine 40 nM).
`COc1cc(N2CCN(C(=O)C3CCCN3)CC2)ccc1Nc1ncc(Cl)c(Nc2ccccc2P(C)(C)=O)n1` (stereo not drawn) — result for “late apoptotic cells”: 16.5% and 17.7% and 16.7% (Ba/F3 EML4-ALK; flow cytometry; concentration not given, 24 h).
`Cc1cc(Cl)cc(-c2ccnc3cc(CN4C(=O)C5C(C4=O)C5(C)C)sc23)c1C[C@@H]1CNCCO1` (stereo partly drawn) — result for “G1 phase cells”: 73.5% (CHP-212 parental; PI flow cytometry; 1 µM, 24 h).
`C=C1C(=O)OC2C1CCC(C)(O)C13C=CC(C)(C21)C1(C3)C(=O)OC2C3C(=C(C)CC(OC(C)=O)C21)CC(Cl)C3(C)O` (stereo not drawn) has a maximum inhibition of 14.3 ± 1.82% (AML12 mouse hepatocytes; lipid accumulation, Nile Red staining; maximum safe concentration, 24 h, together with: palmitic acid/oleic acid).
For `Cc1cc(NC2CCN(C)CC2)ccc1-c1cc2c(N3CCC[C@H](C(=O)NCc4ccc(OC(F)(F)F)cc4)C3)ncnc2[nH]1`, the inhibition was 87.2% (KARPAS-299; cell growth or viability, MTT; 5 µg/mL, 72 h).
For `Cn1ncc(-c2ccc3c(=O)[nH]nc(CN)c3c2)c1-c1c(F)c(Cl)cc(OC2CC2)c1C#N`, the IC50 was 2990 nM (HCC1806; cell viability, inhibitor, CellTiter-Glo; 120 h, baseline-subtracted).
`CC(=O)c1cccc(CN2CCCC(CCC(=O)NCc3ccccc3F)C2)c1` (stereo not drawn) gave a translation activity of 118% and 147% (Trypanosoma cruzi; reporter mRNA translation, inhibitor, measured: Renilla luciferase mRNA; cell-free extract; concentration not given, test 1; baseline: positive over negative control).
`CC[C@H](C)[C@H](NC(=O)[C@H](CCC(N)=O)NC(=O)[C@H](CC(C)C)NC(=O)[C@H](CC(N)=O)NC(=O)[C@H](Cc1c[nH]cn1)NC(=O)[C@H](CCCCN)NC(=O)[C@@H](NC(=O)[C@@H](N)C(C)C)[C@@H](C)O)C(=O)N[C@@H](COP(=O)(O)O)C(=O)N[C@@H](CCC(N)=O)C(=O)N[C@@H](COP(=O)(O)O)C(=O)N[C@@H](Cc1ccc(O)cc1)C(=O)O` — result for ALP activity: “no effect” (MC3T3; 300 µM, 12 days, together with: BMP2 50 ng/mL; baseline: BMP2 alone).
For `C=CC(=O)Nc1cccc(Cn2ncc3cnc(Nc4cnn(CCOC)c4)nc32)c1`, the binding was 100% (human QSK; KINOMEscan; 100 nM; baseline: control).
`Cn1c(=O)n(C2CCC(=O)NC2=O)c2ccc(C3CCN(CC(=O)Nc4cccc(CS(=O)(=O)N5CC[C@H](Nc6cccc(-c7sc(C(=O)O)c(OCC(=O)O)c7Cl)c6)CC5(C)C)c4)CC3)cc21` (stereo partly drawn) gave a fold change of 2.48 and 2.05 and 2.35 and 1.95 and 1.99 (B16-F10; HTRF, measured: phospho-STAT1 Tyr701; 0.014 µM, together with: IFN-γ; baseline: DMSO).
`Cc1ccc(-n2cc(CSc3nc4ccccc4n3Cc3cn(-c4ccc(C)cc4)nn3)nn2)cc1` gave a viability of 10.7% (Caco-2; MTT; 250 ppm).
`CCN(C(=O)c1cc(F)ccc1Oc1nncnc1N1CCC2(C1)CN([C@H](CCCN(C)CCOC)C(C)C)C2)C(C)C` has a GI50 of greater than 10000 nM (Kasumi 1; cell growth or viability; 7 days).
With `COc1ccc(NC(=O)c2ccc3[nH]c(-c4ccc(N(C)C)cc4)nc3c2)cn1` the GI50 was 5030 nM (YAPC; cell growth, CellTiter-Glo).
Under “log2 fold change”, `COC1CN([C@H]2CC[C@H]([C@@]3(C)Oc4c(Cl)cc(C(=O)NCc5c(SC)cc(C)[nH]c5=O)c(C)c4O3)CC2)C1` is recorded as 2.22 (RNA-seq, measured: APBB2; human, whole blood; dose not given, 24 h; baseline: pretreatment baseline).
`COC(=O)c1cc(NC2=NC(=O)C(=Cc3ccc(C)cc3)S2)ccc1OC(C)=O` has a metabolite level of -1.01 fold change (MCF7; GC-MS, measured: L-Threonine; 1 µM; baseline: DMSO).
`O=C(Nc1nnc2c1c(-c1ccc(Cl)cc1)nc1sc(=Cc3ccco3)c(=O)n12)c1ccccc1` (mixture of isomers) has a growth percent of 53.6% (786-0; NCI60 SRB; 10 µM).
With `COC(=O)c1cc(NC2=NC(=O)C(=Cc3ccc(N(C)C)cc3)S2)ccc1OC(C)=O` the metabolite level was -0.65 fold change (MCF7; GC-MS, measured: Phosphorylethanolamine; 1 µM; baseline: DMSO).
`CCOc1cncc(-c2ccc(NC(=O)C3(c4ccnc(NS(=O)(=O)C5CC5)n4)CCOCC3)nc2)n1` gave an IC50 of 10000 nM (lung cancer; cell viability, CellTiter-Glo; DMSO 0.1%; 72 h, line code 623).
The GFP-positive cells of `CCN(CC)CCNC(=S)Nc1ccc2nc(N3CCN(CC)CC3)cc(C)c2c1` is reported as 6.54% (U2OS SSA-GFP reporter; single-strand annealing repair, flow cytometry; 5 µM).
The reporter activity of `C=C1C[C@]2(C(=O)OC)C=C(C(=O)Nc3cccc(C(=O)Nc4ccc(Nc5nccc(-c6cccnc6)n5)c(C)c4)c3)C(=O)[C@H]1C2` is reported as 1.11 (HEK293 AP1 reporter cells; AP-1 reporter gene, inhibitor; 1 µM, 6 h, unit not given, together with: PMA; baseline: PMA alone).
With `O=C(CCCCCOc1ccc2ccccc2c1)N[C@@H](CO)C[C@@H](O)c1ccc(-c2ccccc2)cc1` the lactosylceramide level was 22700 pmol/sample and 26300 pmol/sample and 24000 pmol/sample (HeLa; CERT activity, HPLC-MS/MS lipidomics, measured: lactosylceramide 16; 1 µM, 24 h, not cell-number normalised).
Under “nuclear protein level”, `C=C1C(=O)OC2C1CCC(C)(O)C13C=CC(C)(C21)C1(C3)C(=O)OC2C3C(C)C(=O)CC3C(=C)CC(OC(C)=O)C21` (stereo not drawn) is recorded as “increased” (AML12; Western blot, measured: FoxO1; concentration not given, together with: palmitate/oleate).
For `Cc1ncsc1-c1ccc(C(C)NC(=O)C2CC(O)CN2C(=O)C(NC(=O)CCCCCCCCCCN2CCCC(Nc3ncc(Cl)c(Nc4ccccc4S(=O)(=O)C(C)C)n3)C2)C(C)(C)C)cc1` (stereo not drawn), “log2 fold change” read -1.59 (22Rv1; RNA-seq, measured: ZBTB48 mRNA; concentration not given; baseline: DMSO).
`COc1ccccc1-c1ccncc1C(=O)Nc1nnc(OCc2ccc(Cl)cc2)s1`: “change in MMEJ frequency” 2.1% and 2.4% and 3% (U2OS EJ2-GFP; EJ2-GFP reporter, GFP+/dsRed+ ratio; 20 µM, together with: I-SceI transfection; baseline: DMSO).
`O=S(=O)(c1ccc2c(c1)OCO2)n1cc(CCCCN2CCC(=C(c3ccc(F)c(F)c3)c3ccc(F)c(F)c3)CC2)nn1`: protein abundance “decreased” (B16-F10-luc2; TMT proteomics, measured: RhoA, THUMPD3, S100A11, STMN2, SRGAP2; 5 µM, 2 h).
For `CNS(=O)(=O)Nc1nccc(Cc2c(C)c3ccc(Oc4ncccc4F)cc3oc2=O)c1F`, the IC50 was 422 nM (HCC4006; cell viability; 7 days).
`CO[C@@H]1[C@@H](OC(N)=O)[C@@H](O)[C@H](Oc2ccc3c(O)c(NC(=O)c4ccc(O)c(CC=C(C)C)c4)c(=O)oc3c2C)OC1(C)C` gave a colony count of 19.5 (HCT-116 parental; 50 µM, replicate 1).

For quick reference, copied from above:
`CCOc1cncc(-c2ccc(NC(=O)C3(c4ccnc(NS(=O)(=O)C5CC5)n4)CCOCC3)nc2)n1` gave an IC50 of 10000 nM (lung cancer; cell viability, CellTiter-Glo; DMSO 0.1%; 72 h, line code 623).
With `COc1cc(C(=O)N2CC[C@@H](O)[C@@H](N)C2)cc2nc(-c3cc4cccnc4n3CC3CC3)n(C)c12` the inhibition was 28.2% and 24.5% and 50.9% and 54% (human neutrophils; protein citrullination, inhibitor, flow cytometry, measured: citrullinated proteins; 10 µM, together with: ionomycin).
`CCN(CC)CC(=O)Nc1cccc(-n2cc(-c3ccc4ccc(-c5cn(-c6cccc(NC(=O)CN(CC)CC)c6)nn5)cc4c3)nn2)c1` gave a fold regulation of 1.06 (RCC4; PCR array, measured: HGF; 5 x IC50, 6 h, normoxia; baseline: untreated).
